Measurements collected from several papers.
A part holds a random share of what one study measured.

Sample 1
Target: RNA binding protein fox-1 homolog 2, RRM domain, GST-SBP tag (RBFOX2, Homo sapiens, UniProt O43251-10, residues 100-194)
Method: RNA Bind-n-Seq
Form: RNA
Sample: in vitro
Tested at: 365 nM
Notes: natural RNA segment, single round, ends assumed
Baseline: no-protein control
Direction: higher = stronger binding
Construct (chain): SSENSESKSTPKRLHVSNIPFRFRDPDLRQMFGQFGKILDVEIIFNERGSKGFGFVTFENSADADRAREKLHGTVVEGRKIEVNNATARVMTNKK
Oligonucleotide	RBNS enrichment (R)
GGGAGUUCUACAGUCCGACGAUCUAUUUUUUUGAUGGCUAAGCUGUUGCUGACACUGAAAAUAAACUAGGGUUUGGCCUGCCCUAUUUCUAGUGUUGCUUCUCCUUUCCUAGGGACAGUGUGUGUGUGUGUGUUGGAAUUCUCGGGUGCCAA	0.752
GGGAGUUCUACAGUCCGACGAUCACAGUCUGCACCUUUGAUACGGUAUUGCAUUUCCAAAGCCACCAAUCCAUUUUGUGGAUUUUAUGUGUUUGUGGCUUAAUAAUCAUAGUAACAACAAUAAUACCUUUUUCUGGAAUUCUCGGGUGCCAA	0.754
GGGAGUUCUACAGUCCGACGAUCGUUGAGGAAGCUGCUCCAGAAGCGCCUCGGAAGGGGAGCUCUCAUCAUGGCGCGUGCUGCUGCGGCAUAUGGACUUUUAAUAAUGUUUUUGAAUUUCGUAUUCUUUCAUUUGGAAUUCUCGGGUGCCAA	0.311
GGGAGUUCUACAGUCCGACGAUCUGCCUGGUGUUACACAGAGCAUGGCGUGGCUGGUCUGGAGCGCAUAGCAAUAAUACUGUGCUGUGGUGACCUCCGCCCUUGCCUUGUGCAUGUCACACCUCCUUUUCCUUUGGAAUUCUCGGGUGCCAA	0.567
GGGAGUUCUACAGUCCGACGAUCGUUCUUGUUAGAACACCAAGCACACACUUGAGAUUAUUUAUUGAUCGAGGCAAAGUAAUUAGUCAUGUUUGGGUUUGCUUUUUUUGUUGAUAAGAUUAACAAUGUGUGCUUGGAAUUCUCGGGUGCCAA	1.29
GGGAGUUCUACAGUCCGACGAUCGAAAAGUACUGGAAAGAUCCAGACAUGUUCUAUCCUGAGCGAUUUCUGGACAGCAAUGGAUAUUUUACUAAAAAGGAAGCUUUGAUUCCUUUUUCUCUAGGGAGAAGACAUGGAAUUCUCGGGUGCCAA	0.241
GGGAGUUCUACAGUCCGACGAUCAUUUCUCUGACAAGACAAAGUAGAUAUUUUAUACCAGGGGUUGGCAAACUACUGCCCACGGGCCGAAUUUGGCCCAGUCUGUUUUUGUAUGGUGCAAACUAAAAAUGAUUUGGAAUUCUCGGGUGCCAA	0.606
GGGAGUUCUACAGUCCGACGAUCUCCACAGAAGCUGGGGGAGAGUCUGCAGCAGGCCUGAGCCUGCUGAUGUCAGUGCUGACUGAGUCCAUGCUAACUGAGAUCUGUAGGCAGAGCUCUGCCCUGUAGCUCCCUGGAAUUCUCGGGUGCCAA	0.772

Sample 2
Target: Prothrombin, mature alpha-thrombin (F2, Homo sapiens, UniProt P00734)
Method: aptamer microarray, sandwich
Form: DNA with 2'F-ANA
Sample: in vitro
Tested at: 200 nM
Notes: whole 15-mer aptamer, many near background
Added: Cy3 exosite-II aptamer, 400 nM
Direction: higher = stronger binding
Oligonucleotide: GGTTGGTGTGGTTGG
Modification	mean fluorescence intensity [a.u.]
2'F-ANA at 2 3 7 8 9 11 14 15	432
2'F-ANA at 1 3 4 6 7 8 12 14 15	95.3
2'F-ANA at 1 2 4 5 7 10 15	43.7
2'F-ANA at 2 6 7 9	325
2'F-ANA at 1 2 3 10 11 14	57.2
2'F-ANA at 1 2 3 5 8 9 11 12	105
2'F-ANA at 2 4 5 8 9 11 14 15	55.7
2'F-ANA at 1 3 8 10 12 14 15	57.9
2'F-ANA at 1 2 3 4 10	80.2
2'F-ANA at 2 8 9 10 12 14	89.7
2'F-ANA at 1 5 9 10 11 12	65.9
2'F-ANA at 1 2 4 5 7 10 12 13	791
2'F-ANA at 2 4 5 6 8 10 12	55
2'F-ANA at 1 3 4 11 12	388
2'F-ANA at 1 2 4 6 7 8 9 10 13 14	49.6
2'F-ANA at 3 4 6 7 8 10 12 13 15	268
2'F-ANA at 3 5 6 7 9 11 13	136
2'F-ANA at 1 3 7 8 10 11 12 13 14	179

Sample 3
Target: Sal-like protein 4, full length isoform A (SALL4, Homo sapiens, UniProt Q9UJQ4, residues 1-1053)
Chain of UniProt Q9UJQ4 (whole entry, looked up): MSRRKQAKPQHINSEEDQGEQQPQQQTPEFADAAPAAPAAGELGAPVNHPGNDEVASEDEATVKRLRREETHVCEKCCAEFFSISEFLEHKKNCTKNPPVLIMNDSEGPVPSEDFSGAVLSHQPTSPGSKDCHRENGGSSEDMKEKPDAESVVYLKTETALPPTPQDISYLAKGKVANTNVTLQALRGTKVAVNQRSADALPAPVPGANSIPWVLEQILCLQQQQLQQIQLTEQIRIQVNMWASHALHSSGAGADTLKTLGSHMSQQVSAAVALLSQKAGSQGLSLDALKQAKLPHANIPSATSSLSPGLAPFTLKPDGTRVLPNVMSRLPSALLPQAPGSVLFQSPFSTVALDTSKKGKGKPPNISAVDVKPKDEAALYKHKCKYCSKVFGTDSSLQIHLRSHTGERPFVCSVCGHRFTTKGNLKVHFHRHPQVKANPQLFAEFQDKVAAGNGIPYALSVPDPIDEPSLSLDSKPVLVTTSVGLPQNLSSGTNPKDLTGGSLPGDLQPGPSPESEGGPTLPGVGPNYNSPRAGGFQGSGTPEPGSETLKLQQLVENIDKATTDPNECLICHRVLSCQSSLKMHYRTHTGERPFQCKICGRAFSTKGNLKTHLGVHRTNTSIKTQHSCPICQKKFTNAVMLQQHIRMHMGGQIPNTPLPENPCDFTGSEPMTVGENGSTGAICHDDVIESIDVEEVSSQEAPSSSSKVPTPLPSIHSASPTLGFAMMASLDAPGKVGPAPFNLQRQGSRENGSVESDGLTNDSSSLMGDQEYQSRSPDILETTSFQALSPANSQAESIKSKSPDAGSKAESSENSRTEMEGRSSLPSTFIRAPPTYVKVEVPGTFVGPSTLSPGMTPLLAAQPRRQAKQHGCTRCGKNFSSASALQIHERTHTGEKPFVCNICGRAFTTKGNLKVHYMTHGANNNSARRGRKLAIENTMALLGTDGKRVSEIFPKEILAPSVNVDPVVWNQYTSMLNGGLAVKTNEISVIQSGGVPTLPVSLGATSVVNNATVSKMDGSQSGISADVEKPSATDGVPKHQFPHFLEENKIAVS
Method: universal PBM
Form: double-stranded DNA, one strand shown
Sample: in vitro
Tested at: 600 nM
Notes: 8-mer, flanks averaged, mean of replicates
Direction: higher = stronger binding
Oligonucleotide	E-score
GTACGCTA	-0.0448
CCCGGAAA	-0.235
AATTCAGT	0.108
CCAGCGCG	-0.386
CTTCCTCC	-0.214
GCCTGGCA	-0.313
AAATGCCT	0.102
ACTTGGGA	-0.113
GGGTTTAA	0.115
GCCGCAGC	-0.293
ACAGGAAG	-0.0463
AGGGTTCG	-0.276
ACCGCAAT	-0.0771
AGCAAGCT	-0.179
AGCGGCAC	-0.343
ACGGCACC	-0.317
AAGGTGGA	-0.112
ATTACTGG	0.144

Sample 4
Target: Interferon regulatory factor 3, full length, phosphomimetic (IRF3, Homo sapiens, UniProt Q14653, residues 1-427, S386D/S396D/S398D/S402D/T404D/S405D)
Method: protein-binding microarray
Form: double-stranded DNA, one strand shown
Sample: in vitro
Tested at: 2540 nM top
Notes: 60-bp whole probe
Added: salmon DNA 0.4 mg/ml
Baseline: random background probes
Direction: higher = stronger binding
All sequences stand within: GCCTAGCAC … GTCTTGATTCGCTTGACGCTGCTG
Target sequence (chain): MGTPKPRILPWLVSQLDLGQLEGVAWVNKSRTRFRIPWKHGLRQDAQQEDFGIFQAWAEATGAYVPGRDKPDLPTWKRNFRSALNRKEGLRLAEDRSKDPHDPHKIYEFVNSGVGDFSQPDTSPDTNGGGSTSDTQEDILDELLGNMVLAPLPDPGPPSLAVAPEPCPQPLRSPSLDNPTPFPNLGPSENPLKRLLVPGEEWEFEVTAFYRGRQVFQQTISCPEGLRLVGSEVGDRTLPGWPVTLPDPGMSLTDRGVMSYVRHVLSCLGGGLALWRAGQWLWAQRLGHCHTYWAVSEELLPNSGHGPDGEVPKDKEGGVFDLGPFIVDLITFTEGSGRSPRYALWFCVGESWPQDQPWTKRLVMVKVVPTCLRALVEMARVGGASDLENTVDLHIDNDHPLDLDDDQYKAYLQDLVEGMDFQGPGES
Oligonucleotide	fitted relative affinity [z-score]
GACGGCCTGGGGTATCGGGACGTGCTA	-0.901
TCAGCTCTGTGCATAGGACTGTGCTAG	-0.24
TTAGCTATCGGGTTTCGATTAGTGCTA	1.78
GACGGTATCGGTTTTGGGACGTGCTAG	5.65
AACCTTATTAAGATTGTGCAAGTGCTA	0.644
GAGGGTTTCGGGTTTCGGGACGTGCTA	4.35
GACGATTTAAGTTCCGAGACGTGCTAG	0.825
TCAGGTTTCGGTCTCGGTTAGTGCTAG	8.56
TTAGAACTGGGGACTGGTTTAGTGCTA	-0.905
TTAGGACTGGGTTACGGTTAGTGCTAG	-0.307
GTTTGTATATATTTTAACCCGTGCTAG	0.844
